Results pooled from the literature.
A part holds a random share of what one study measured.
UniProt O75676, sequence (whole entry, looked up): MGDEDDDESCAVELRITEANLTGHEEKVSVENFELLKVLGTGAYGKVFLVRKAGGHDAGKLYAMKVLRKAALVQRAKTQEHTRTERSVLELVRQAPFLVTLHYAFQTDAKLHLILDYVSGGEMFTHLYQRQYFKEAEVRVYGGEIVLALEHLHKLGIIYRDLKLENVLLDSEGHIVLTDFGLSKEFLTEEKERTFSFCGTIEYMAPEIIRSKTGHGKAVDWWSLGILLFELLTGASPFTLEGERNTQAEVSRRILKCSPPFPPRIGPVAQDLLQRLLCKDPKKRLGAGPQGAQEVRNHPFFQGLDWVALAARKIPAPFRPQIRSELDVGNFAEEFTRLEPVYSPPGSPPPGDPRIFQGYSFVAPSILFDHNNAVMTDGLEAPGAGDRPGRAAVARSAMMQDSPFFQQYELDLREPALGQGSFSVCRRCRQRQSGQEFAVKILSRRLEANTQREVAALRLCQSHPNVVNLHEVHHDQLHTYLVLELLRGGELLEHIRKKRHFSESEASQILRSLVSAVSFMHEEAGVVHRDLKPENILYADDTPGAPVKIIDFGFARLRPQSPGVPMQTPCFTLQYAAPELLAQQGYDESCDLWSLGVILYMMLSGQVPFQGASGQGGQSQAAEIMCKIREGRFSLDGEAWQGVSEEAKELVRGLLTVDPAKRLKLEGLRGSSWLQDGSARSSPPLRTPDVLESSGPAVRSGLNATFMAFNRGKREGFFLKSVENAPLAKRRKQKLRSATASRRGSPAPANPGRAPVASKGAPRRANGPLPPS
UniProt P30291, sequence (whole entry, looked up): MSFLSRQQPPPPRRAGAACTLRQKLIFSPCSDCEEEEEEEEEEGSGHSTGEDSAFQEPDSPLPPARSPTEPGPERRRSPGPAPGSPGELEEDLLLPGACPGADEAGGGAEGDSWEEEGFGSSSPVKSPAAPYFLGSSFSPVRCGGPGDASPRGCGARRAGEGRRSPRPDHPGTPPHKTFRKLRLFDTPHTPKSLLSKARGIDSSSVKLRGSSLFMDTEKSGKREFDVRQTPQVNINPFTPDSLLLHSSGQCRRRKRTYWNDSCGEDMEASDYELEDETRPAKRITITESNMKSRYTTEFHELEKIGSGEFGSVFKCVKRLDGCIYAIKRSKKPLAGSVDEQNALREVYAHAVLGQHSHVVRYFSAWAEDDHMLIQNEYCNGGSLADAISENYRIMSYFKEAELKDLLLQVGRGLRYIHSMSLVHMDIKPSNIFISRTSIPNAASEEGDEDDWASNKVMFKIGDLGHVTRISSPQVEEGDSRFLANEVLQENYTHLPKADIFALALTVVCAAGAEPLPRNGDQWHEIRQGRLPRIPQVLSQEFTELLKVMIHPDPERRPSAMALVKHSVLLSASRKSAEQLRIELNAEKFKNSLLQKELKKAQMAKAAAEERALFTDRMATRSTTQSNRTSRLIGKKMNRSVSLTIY
UniProt Q9P0L2, sequence (whole entry, looked up): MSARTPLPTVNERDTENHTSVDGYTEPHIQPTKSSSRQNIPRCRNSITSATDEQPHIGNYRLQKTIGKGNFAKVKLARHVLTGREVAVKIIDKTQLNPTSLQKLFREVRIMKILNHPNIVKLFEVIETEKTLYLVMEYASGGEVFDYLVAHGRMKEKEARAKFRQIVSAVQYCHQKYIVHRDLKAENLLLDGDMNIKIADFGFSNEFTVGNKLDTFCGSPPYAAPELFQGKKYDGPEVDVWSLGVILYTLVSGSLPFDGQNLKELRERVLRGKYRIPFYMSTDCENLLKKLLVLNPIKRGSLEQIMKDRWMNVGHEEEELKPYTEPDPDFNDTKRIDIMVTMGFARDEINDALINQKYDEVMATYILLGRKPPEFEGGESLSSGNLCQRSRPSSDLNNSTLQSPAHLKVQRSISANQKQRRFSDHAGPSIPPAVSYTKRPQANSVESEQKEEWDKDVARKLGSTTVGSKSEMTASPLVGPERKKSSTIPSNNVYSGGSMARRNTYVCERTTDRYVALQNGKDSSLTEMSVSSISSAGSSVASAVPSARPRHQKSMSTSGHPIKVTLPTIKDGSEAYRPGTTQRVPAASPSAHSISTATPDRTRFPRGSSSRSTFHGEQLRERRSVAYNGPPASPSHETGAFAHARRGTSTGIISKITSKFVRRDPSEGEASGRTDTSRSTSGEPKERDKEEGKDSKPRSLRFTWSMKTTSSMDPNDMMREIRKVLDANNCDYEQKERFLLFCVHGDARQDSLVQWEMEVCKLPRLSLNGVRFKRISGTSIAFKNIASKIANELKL
UniProt Q13153, sequence (whole entry, looked up): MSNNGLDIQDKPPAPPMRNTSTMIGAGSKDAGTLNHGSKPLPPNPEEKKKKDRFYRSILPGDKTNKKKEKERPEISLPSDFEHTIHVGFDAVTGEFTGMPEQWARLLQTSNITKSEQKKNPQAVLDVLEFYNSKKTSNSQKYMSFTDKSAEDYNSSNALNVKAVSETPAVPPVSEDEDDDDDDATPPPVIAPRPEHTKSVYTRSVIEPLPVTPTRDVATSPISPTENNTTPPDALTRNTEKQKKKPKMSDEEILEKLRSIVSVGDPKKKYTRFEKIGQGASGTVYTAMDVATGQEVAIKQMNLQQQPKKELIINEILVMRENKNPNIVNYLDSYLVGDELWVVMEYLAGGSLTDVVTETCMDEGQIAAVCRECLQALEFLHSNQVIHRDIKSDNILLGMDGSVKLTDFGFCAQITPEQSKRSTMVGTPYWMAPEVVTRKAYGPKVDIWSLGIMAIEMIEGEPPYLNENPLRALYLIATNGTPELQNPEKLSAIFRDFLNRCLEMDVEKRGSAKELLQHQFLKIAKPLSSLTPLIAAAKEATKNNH
UniProt Q96PY6, sequence (whole entry, looked up): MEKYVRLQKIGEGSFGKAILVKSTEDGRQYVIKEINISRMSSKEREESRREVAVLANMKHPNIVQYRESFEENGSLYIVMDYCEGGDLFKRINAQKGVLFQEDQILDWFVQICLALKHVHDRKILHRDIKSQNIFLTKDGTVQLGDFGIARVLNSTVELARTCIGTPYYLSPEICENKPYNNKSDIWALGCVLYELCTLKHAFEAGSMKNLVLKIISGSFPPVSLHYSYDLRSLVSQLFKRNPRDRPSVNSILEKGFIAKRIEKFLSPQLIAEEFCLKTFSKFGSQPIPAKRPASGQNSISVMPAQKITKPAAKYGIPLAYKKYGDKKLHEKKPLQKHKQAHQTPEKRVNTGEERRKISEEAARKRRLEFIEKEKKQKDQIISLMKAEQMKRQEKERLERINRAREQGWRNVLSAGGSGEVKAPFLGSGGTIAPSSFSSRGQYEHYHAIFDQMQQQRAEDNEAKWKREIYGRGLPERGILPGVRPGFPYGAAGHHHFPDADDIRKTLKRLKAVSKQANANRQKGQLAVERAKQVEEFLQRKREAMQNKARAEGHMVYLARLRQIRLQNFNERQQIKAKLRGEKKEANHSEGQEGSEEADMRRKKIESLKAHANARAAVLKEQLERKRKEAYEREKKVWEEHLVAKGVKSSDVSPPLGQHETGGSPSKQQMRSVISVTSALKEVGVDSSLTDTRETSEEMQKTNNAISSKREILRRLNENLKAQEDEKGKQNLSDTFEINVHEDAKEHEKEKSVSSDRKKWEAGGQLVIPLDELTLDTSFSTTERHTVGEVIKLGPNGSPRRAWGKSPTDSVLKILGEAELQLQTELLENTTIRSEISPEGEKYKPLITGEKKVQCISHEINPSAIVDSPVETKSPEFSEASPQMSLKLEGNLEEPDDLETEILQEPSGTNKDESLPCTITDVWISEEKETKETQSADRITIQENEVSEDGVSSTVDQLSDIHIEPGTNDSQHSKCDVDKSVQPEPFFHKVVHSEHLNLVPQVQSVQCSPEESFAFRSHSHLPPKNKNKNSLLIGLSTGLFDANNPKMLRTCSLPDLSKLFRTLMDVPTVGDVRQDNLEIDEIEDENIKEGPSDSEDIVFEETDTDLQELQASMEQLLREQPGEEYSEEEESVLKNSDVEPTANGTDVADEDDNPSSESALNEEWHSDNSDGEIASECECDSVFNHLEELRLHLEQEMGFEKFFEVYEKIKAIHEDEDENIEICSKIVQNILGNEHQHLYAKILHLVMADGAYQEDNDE

Block 1
SMILES: CCS(=O)(=O)c1cc2cc(C[C@@](O)(CC(C)(C)c3ccc(F)cc3C(N)=O)C(F)(F)F)[nH]c2cn1
Tested at: 1 µM
Measurement: remaining binding
Protein kinase C delta type (PRKCD, Homo sapiens, UniProt Q05655); cell-free assay, competition with immobilised ligand: 99%
Serine/threonine-protein kinase Nek1 (NEK1, Homo sapiens, UniProt Q96PY6); cell-free assay, competition with immobilised ligand: 53%
Tyrosine-protein kinase ABL1, phosphorylated (ABL1, Homo sapiens, UniProt P00519, F317I); binding: 100%
Serine/threonine-protein kinase PAK 1 (PAK1, Homo sapiens, UniProt Q13153); cell-free assay, competition with immobilised ligand: 100%
Fibroblast growth factor receptor 3 (FGFR3, Homo sapiens, UniProt P22607); cell-free assay, competition with immobilised ligand: 80%
Epidermal growth factor receptor (EGFR, Homo sapiens, UniProt P00533, del752-759); cell-free assay, competition with immobilised ligand: 100%
Serine/threonine-protein kinase tousled-like 2 (TLK2, Homo sapiens, UniProt Q86UE8); cell-free assay, competition with immobilised ligand: 97%
Dual specificity mitogen-activated protein kinase kinase 4 (MAP2K4, Homo sapiens, UniProt P45985); cell-free assay, competition with immobilised ligand: 100%
Dual specificity mitogen-activated protein kinase kinase 3 (MAP2K3, Homo sapiens, UniProt P46734); cell-free assay, competition with immobilised ligand: 67%
Wee1-like protein kinase (WEE1, Homo sapiens, UniProt P30291); cell-free assay, competition with immobilised ligand: 100%
Serine/threonine-protein kinase MARK1 (MARK1, Homo sapiens, UniProt Q9P0L2); cell-free assay, competition with immobilised ligand: 100%
Proto-oncogene tyrosine-protein kinase ROS (ROS1, Homo sapiens, UniProt P08922); cell-free assay, competition with immobilised ligand: 90%
Casein kinase I isoform delta (CSNK1D, Homo sapiens, UniProt P48730); cell-free assay, competition with immobilised ligand: 100%
Tyrosine-protein kinase ABL1, phosphorylated (ABL1, Homo sapiens, UniProt P00519, T315I); cell-free assay, competition with immobilised ligand: 74%
Ribosomal protein S6 kinase alpha-4, C-terminal kinase domain (RPS6KA4, Homo sapiens, UniProt O75676); cell-free assay, competition with immobilised ligand: 71%

Block 2
Target: Calcium/calmodulin-dependent protein kinase type II subunit alpha (CAMK2A, Homo sapiens, UniProt Q9UQM7)
UniProt Q9UQM7, sequence (whole entry, looked up): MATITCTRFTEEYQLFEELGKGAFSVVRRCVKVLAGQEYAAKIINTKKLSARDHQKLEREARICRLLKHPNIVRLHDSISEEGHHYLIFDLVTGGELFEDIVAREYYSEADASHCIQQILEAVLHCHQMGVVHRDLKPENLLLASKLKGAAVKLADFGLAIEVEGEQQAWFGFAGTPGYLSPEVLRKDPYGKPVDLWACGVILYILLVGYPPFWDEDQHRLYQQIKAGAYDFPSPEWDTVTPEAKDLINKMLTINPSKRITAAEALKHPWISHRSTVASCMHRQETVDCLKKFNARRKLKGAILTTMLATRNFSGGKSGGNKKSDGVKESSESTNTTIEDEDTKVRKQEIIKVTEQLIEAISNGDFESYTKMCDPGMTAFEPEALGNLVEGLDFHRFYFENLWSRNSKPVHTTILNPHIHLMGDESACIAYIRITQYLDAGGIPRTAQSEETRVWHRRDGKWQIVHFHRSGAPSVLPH
Read-out: enzyme activity
Mode: inhibitor
Tested at: 10 µM
Measurement: inhibition
C[n+]1ccccc1C=NO: 1%
CC(C)=CC(O)C/C(C)=C/COc1c2ccoc2cc2oc(=O)ccc12 (stereo not drawn): -19%
C[C@@H](CO)C1=C(O)c2ccc3c(c2C(=O)C1=O)CCCC3(C)C: -1%
Cc1cc(=O)n(-c2ccccc2)n1C: -8%
NC[C@H]1O[C@H](O[C@H]2[C@H](O)[C@@H](O[C@H]3O[C@H](CO)[C@@H](O)[C@H](N)[C@H]3O)[C@H](N)C[C@@H]2N)[C@H](O)[C@@H](O)[C@@H]1O: 29%
O=C(O)Cc1ccccc1O: -24%
OC[C@H]1NC[C@@H](O)[C@@H](O)[C@@H]1O: -20%
CCN(CC)CCNc1ccc(C)c2sc3ccccc3c(=O)c12: -6%

Block 3
Organism: Sarcocystis neurona
Read-out: parasite growth
Tested at: 10 µM
Setting: first screen
Reference: untreated
Measurement: log2 fold change
CC1(C)C[C@@H]1C(=O)N/C(=C\CCCCSC[C@H](N)C(=O)O)C(=O)[O-].[Na+]: 0.14
CC1=C(C/C=C(\C)CCC[C@H](C)CCC[C@H](C)CCCC(C)C)C(=O)c2ccccc2C1=O: 0.2
CCN1CC(CCN2CCOCC2)C(c2ccccc2)(c2ccccc2)C1=O.Cl (stereo not drawn): 0.47
O=c1ncc(F)c[nH]1: -0.77
CCCN[C@H]1CCc2nc(N)sc2C1.Cl: 0.19
CCCCC(=O)O[C@H]1CC[C@H]2[C@@H]3CCc4cc(O)ccc4[C@H]3CC[C@]12C: 0.12
O=C(O[C@@H]1Cc2c(O)cc(O)cc2O[C@@H]1c1cc(O)c(O)c(O)c1)c1cc(O)c(O)c(O)c1: 0.17
O=C1c2c(O)ccc(O)c2C(=O)c2c(NCCNCCO)ccc(NCCNCCO)c21: -2.01
CC1CCN(CCCC(=O)c2ccc(F)cc2)CC1.Cl: 0.1
CC(COc1ccccc1Cc1ccccc1)N1CCCCC1.O=P(O)(O)O (stereo not drawn): -0.0655

Block 4
Target: Beta-1 adrenergic receptor (ADRB1, Homo sapiens, UniProt P08588)
UniProt P08588, sequence (whole entry, looked up): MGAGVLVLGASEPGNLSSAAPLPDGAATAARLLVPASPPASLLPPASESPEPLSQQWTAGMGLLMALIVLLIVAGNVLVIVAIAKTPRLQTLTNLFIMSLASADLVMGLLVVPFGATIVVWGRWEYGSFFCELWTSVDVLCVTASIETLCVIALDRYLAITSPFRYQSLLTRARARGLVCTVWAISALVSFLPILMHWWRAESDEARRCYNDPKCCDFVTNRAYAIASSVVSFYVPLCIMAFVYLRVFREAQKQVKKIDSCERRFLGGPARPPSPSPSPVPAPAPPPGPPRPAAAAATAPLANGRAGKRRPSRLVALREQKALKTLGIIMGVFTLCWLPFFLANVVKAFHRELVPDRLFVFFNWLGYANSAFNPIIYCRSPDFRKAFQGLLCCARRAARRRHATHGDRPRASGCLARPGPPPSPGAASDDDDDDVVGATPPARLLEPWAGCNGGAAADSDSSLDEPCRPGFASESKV
Mode: antagonist
Measurement: IC50
COc1ccccc1N1CCC(N2CCN(CCCc3ccccc3)C(CCO)C2)CC1 (stereo not drawn): ≥ 100 µM
CN(C)c1ccc2c(c1)OC(N)=C(C#N)C2c1cccc(C(F)(F)F)c1 (stereo not drawn): 11.2 µM
CC(C)(Cc1ccc2ccccc2c1)NCC(O)COc1cccc(Cl)c1C#N (stereo not drawn): ≥ 100 µM
O=C1c2cnc(-c3ccsc3)nc2OCCN1c1cccc(C(F)(F)F)c1: ≥ 100 µM
Cc1ccc(C(=O)Nc2cccc(C(F)(F)F)c2)cc1-c1ccc2nc(NCCN3CCOCC3)ncc2c1: ≥ 100 µM
O=C(COc1ccccc1)Nc1ccc([C@@H](O)[C@H]2COCC(=O)N2CCCc2ccccc2)cc1: ≥ 100 µM
CC(COc1ccccc1)NC(C)C(O)c1ccc(O)cc1 (stereo not drawn): ≥ 100 µM
CN1CCC2(CC1)CCN(Cc1ccc(OCC(O)CN3CCCCC3)cc1)C2 (stereo not drawn): ≥ 100 µM
COc1ccc(C(=O)N2CCc3cc(OC)c(OC)cc3C2COc2ccc3c(C)cc(=O)oc3c2)c(OC)c1 (stereo not drawn): ≥ 100 µM
CN(C)c1ccc(-c2nnc([C@H]3CCN(c4nccc(C(F)(F)F)n4)C3)o2)cc1: ≥ 100 µM
CC#CCn1cc2c3c(cccc31)[C@H](CC(C)C)N[C@H](C(=O)NCCOC)C2: ≥ 100 µM
CC(C)NCC(O)COc1cccc2c1N(C(=O)c1cccnc1)CCC2 (stereo not drawn): ≥ 100 µM

A few entries again (block 1):
Proto-oncogene tyrosine-protein kinase ROS (ROS1, Homo sapiens, UniProt P08922); cell-free assay, competition with immobilised ligand: 90%
Casein kinase I isoform delta (CSNK1D, Homo sapiens, UniProt P48730); cell-free assay, competition with immobilised ligand: 100%
Protein kinase C delta type (PRKCD, Homo sapiens, UniProt Q05655); cell-free assay, competition with immobilised ligand: 99%
Ribosomal protein S6 kinase alpha-4, C-terminal kinase domain (RPS6KA4, Homo sapiens, UniProt O75676); cell-free assay, competition with immobilised ligand: 71%
Tyrosine-protein kinase ABL1, phosphorylated (ABL1, Homo sapiens, UniProt P00519, T315I); cell-free assay, competition with immobilised ligand: 74%
Tyrosine-protein kinase ABL1, phosphorylated (ABL1, Homo sapiens, UniProt P00519, F317I); binding: 100%
Dual specificity mitogen-activated protein kinase kinase 3 (MAP2K3, Homo sapiens, UniProt P46734); cell-free assay, competition with immobilised ligand: 67%
